Published values pooled from the literature.
Several values in a cell are separate wells, animals, samples, runs or records. ± marks the error that the study gave. ≈ marks a conversion by molar mass, not a printed value.

SMILES = CC(C)(C)NCC(SS(=O)(=O)O)c1ccccc1 (centres unmarked); tested on = Schistosoma mansoni; test system = infected Swiss Webster mice; conditions = 200 mg/kg single, dosed day 42, perfusion day 56; measurement = mean male worms recovered; value = 12 worms per mouse
SMILES = Fc1ccc(Nc2nc(NC3CCCCC3)c3cc(Br)ccc3n2)cc1F; tested on = β2AR/β1AR TM7 chimera; assay = β-arrestin2 recruitment, antagonist, BRET; conditions = together with: isoprenaline 1 µM; measurement = pIC50; value = 6.4
SMILES = COc1cc2c(NC3CCN(C(C)C)CC3)cc(N3CCOCC3)nc2cc1OCCCN1CCCC1; assay = TMT quantitative proteomics, item: LDHB; test system = 5xFAD mice, hippocampus; conditions = dose not given; measurement = normalised protein abundance; value = -0.029 and 0.00515 and -0.00195 and -0.0585 and -0.0465 and -0.0544 and -0.0318 and -0.0641
SMILES = CC(C)c1ccc(N(C)c2ccc3c(c2)OCC[C@H]3CNc2cnccc2C(=O)O)cc1; tested on = KM12; assay = cell viability, CellTiter-Glo; conditions = 7 days; measurement = IC50; value = 7.34 nM
SMILES = COC1OC(C)C(O)C(OC2OC(C)C(O)C(OC3OC(C)C(O)C(OC4OC(C)C(O)C(OC5OC(C)C(O)C(OC6OC(C)C(O)C(OC7OC(C)C(O)C(OC8OC(C)C(O)C(OC9OC(C)C(O)C(OC%10OC(C)C(O)C(OS(=O)(=O)O)C%10OS(=O)(=O)O)C9OS(=O)(=O)O)C8OS(=O)(=O)O)C7OS(=O)(=O)O)C6OS(=O)(=O)O)C5OS(=O)(=O)O)C4OS(=O)(=O)O)C3OS(=O)(=O)O)C2OS(=O)(=O)O)C1OS(=O)(=O)O (centres unmarked); test system = human plasma; conditions = 128 µg/mL; measurement = thrombin time; value = 9.2 s
SMILES = COc1ccccc1-c1ccncc1C(=O)Nc1nnc(OCc2ccc(Cl)cc2)s1; tested on = PEO1 BRCA2-mutant ovarian cancer; conditions = 1.00 µM, together with: olaparib 1 µM; measurement = colony survival; value = 0%
SMILES = Cc1ncsc1-c1ccc(C(C)NC(=O)C2CC(O)CN2C(=O)C(NC(=O)CCCCCCCCCCN2CCCC(Nc3ncc(Cl)c(Nc4ccccc4S(=O)(=O)C(C)C)n3)C2)C(C)(C)C)cc1 (centres unmarked); tested on = 22Rv1; assay = RNA-seq, item: ZFP90 mRNA; conditions = concentration not given; how to read = reference: DMSO; measurement = log2 fold change; value = -1.71
SMILES = C=CC(=O)Nc1cccc(Cn2ncc3cnc(Nc4cnn(CCOC)c4)nc32)c1; tested on = human JNK3; assay = KINOMEscan; conditions = 100 nM; how to read = reference: control; measurement = binding; value = 73%
SMILES = COC1OC(C)C(O)C(OC2OC(C)C(O)C(OC3OC(C)C(O)C(OC4OC(C)C(O)C(OC5OC(C)C(O)C(OC6OC(C)C(O)C(OS(=O)(=O)O)C6OS(=O)(=O)O)C5OS(=O)(=O)O)C4OS(=O)(=O)O)C3OS(=O)(=O)O)C2OS(=O)(=O)O)C1OS(=O)(=O)O (centres unmarked); test system = human plasma; conditions = 128 µg/mL; measurement = thrombin time; value = 10.6 ± 0.9 s
SMILES = CN1CCCNC(=O)c2cccc(c2)C(=O)NCCCN(C)CCCNc2cccc3c2C(=O)c2cccc(c2C3=O)NCCC1; tested on = SAS; assay = RNA-Seq, item: BCLAF1 mRNA; conditions = 1 µM, 6 h; how to read = reference: untreated cells; measurement = log2 fold change; value = 0.61
SMILES = C=C(NC(=O)c1csc(-c2nc3c(cc2O)-c2nc(cs2)C(=O)NC(C(C)O)C(=O)NC(=C(C)OC)c2nc(cs2)C(=O)NC2c4nc(cs4)C(=O)NC(COC(=O)c4c5c6c(cccc6n4O)COC(=O)C(OC4CC(C)(O)C(N(C)C)C(C)O4)C2OC5)c2nc-3cs2)n1)C(N)=O (centres unmarked); tested on = Enterococcus faecium; assay = microbial growth; conditions = clinical isolate; measurement = MIC90; value = 0.0312 µg/mL (≈ 0.0217 µM)
SMILES = CCN(CC)CC(=O)Nc1cccc(-n2cc(-c3ccc4ccc(-c5cn(-c6cccc(NC(=O)CN(CC)CC)c6)nn5)cc4c3)nn2)c1; tested on = RCC4; assay = PCR array, item: PDGFA; conditions = 5 x IC50, 2 h, normoxia; how to read = reference: untreated; measurement = fold regulation; value = 1.01
SMILES = Nc1ncc(-c2cc(-c3cnn(CC(F)(F)F)c3)ncc2F)nc1C(=O)NC1CNCC(F)C1 (centres unmarked); tested on = IKK-beta; assay = KINOMEscan competition binding; conditions = 1 µM; how to read = reference: DMSO control; measurement = remaining binding; value = 43%
SMILES = COC1OC(C)C(O)C(OC2OC(C)C(O)C(OC3OC(C)C(O)C(OC4OC(C)C(O)C(OC5OC(C)C(O)C(OS(=O)(=O)O)C5OS(=O)(=O)O)C4OS(=O)(=O)O)C3OS(=O)(=O)O)C2OS(=O)(=O)O)C1OS(=O)(=O)O (centres unmarked); test system = human plasma; conditions = 128 µg/mL; measurement = thrombin time; value = 10.4 ± 0.4 s
SMILES = Cc1cccc2c1N(C(=O)n1ccnn1)CC2; tested on = Arabidopsis thaliana; test system = kai2 mutant; conditions = 10 µM, 72 h; measurement = germination rate; value = 70.2%
SMILES = C=CC(=O)N1[C@H](c2ccc3c(c2)OCO3)c2[nH]c3ccccc3c2C[C@@H]1C(=O)N1CCN(C)CC1; tested on = human cyclin E1 N112C-3xFLAG:CDK2; assay = co-IP with TMT proteomics, item: PRDX1; conditions = concentration not given, Q06830; how to read = reference: wild type DMSO; measurement = relative co-enrichment; value = 101%
SMILES = COc1cc(O)ccc1CCC(c1ccc(O)cc1)c1cc2c(c(C)c1O)OC(c1ccc(O)cc1)CC2 (mixture of isomers); assay = item: 17-HDHA; test system = human whole blood; conditions = 0.3 µM, together with: Escherichia coli; measurement = amount; value = 698 ± 217 pg/mL blood
SMILES = COC1OC(C)C(OS(=O)(=O)O)C(OC2OC(C)C(OS(=O)(=O)O)C(OC3OC(C)C(OS(=O)(=O)O)C(OC4OC(C)C(OS(=O)(=O)O)C(OC5OC(C)C(OS(=O)(=O)O)C(OS(=O)(=O)O)C5O)C4O)C3O)C2O)C1O (centres unmarked); test system = human plasma; conditions = 128 µg/mL; measurement = thrombin time; value = 9.8 ± 0.3 s
SMILES = c1ccc(-c2n[nH]cc2-c2ccnc3ccccc23)nc1; tested on = IRE1 (Candida albicans); assay = kinase binding, MIB/MS competition; test system = Candida albicans lysate; conditions = 10 µM; how to read = reference: DMSO; measurement = log2 fold change; value = -0.15
SMILES = COC1OC(C)C(OS(=O)(=O)O)C(OC2OC(C)C(OS(=O)(=O)O)C(OC3OC(C)C(OS(=O)(=O)O)C(OC4OC(C)C(OS(=O)(=O)O)C(OC5OC(C)C(OS(=O)(=O)O)C(OC6OC(C)C(OS(=O)(=O)O)C(OC7OC(C)C(OS(=O)(=O)O)C(OC8OC(C)C(OS(=O)(=O)O)C(OC9OC(C)C(OS(=O)(=O)O)C(OS(=O)(=O)O)C9O)C8O)C7O)C6O)C5O)C4O)C3O)C2O)C1O (centres unmarked); test system = human plasma; conditions = 128 µg/mL; measurement = thrombin time; value = 9.2 s
SMILES = CNS(=O)(=O)Nc1nccc(Cc2c(C)c3ccc(Oc4ncccc4F)cc3oc2=O)c1F; tested on = KG-1a; assay = cell viability; conditions = 7 days; measurement = IC50; value = 4.77 nM
SMILES = COC1CN([C@H]2CC[C@H]([C@@]3(C)Oc4c(Cl)cc(C(=O)NCc5c(SC)cc(C)[nH]c5=O)c(C)c4O3)CC2)C1; assay = RNA-seq, item: PHLPP1; test system = human, whole blood; conditions = dose not given, 24 h; how to read = reference: pretreatment baseline; measurement = log2 fold change; value = 1.77
SMILES = COC1OC(C)C(OC2OC(C)C(OS(=O)(=O)O)C(OC3OC(C)C(OC4OC(C)C(OS(=O)(=O)O)C(OC5OC(C)C(OC6OC(C)C(OS(=O)(=O)O)C(OC7OC(C)C(OC8OC(C)C(OS(=O)(=O)O)C(OC9OC(C)C(OC%10OC(C)C(OS(=O)(=O)O)C(OC%11OC(C)C(OS(=O)(=O)O)C(OS(=O)(=O)O)C%11O)C%10O)C(OS(=O)(=O)O)C9O)C8O)C(OS(=O)(=O)O)C7O)C6O)C(OS(=O)(=O)O)C5O)C4O)C(OS(=O)(=O)O)C3O)C2O)C(OS(=O)(=O)O)C1O (centres unmarked); test system = human plasma; conditions = 128 µg/mL; measurement = thrombin time; value = 10.2 ± 0.7 s
